# Published values collected from several papers.
# Every numbered part comes from another study and shows a few of its results, in no order. Several values in a cell are separate wells, animals, samples, runs or records.
# UniProt P42685, sequence (whole entry, looked up): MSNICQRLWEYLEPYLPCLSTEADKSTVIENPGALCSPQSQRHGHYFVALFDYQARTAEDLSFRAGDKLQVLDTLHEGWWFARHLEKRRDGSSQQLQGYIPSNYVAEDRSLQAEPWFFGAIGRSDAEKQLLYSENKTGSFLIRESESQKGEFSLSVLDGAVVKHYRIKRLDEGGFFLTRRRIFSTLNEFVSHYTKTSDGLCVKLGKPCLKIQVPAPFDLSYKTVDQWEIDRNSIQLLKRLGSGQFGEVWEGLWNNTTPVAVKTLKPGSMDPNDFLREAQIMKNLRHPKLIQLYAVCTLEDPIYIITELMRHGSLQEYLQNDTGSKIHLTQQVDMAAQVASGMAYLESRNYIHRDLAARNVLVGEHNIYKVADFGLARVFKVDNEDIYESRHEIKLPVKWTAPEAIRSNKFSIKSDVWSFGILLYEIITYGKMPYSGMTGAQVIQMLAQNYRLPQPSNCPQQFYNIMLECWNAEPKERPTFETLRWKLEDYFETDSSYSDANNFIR
# UniProt Q02779, sequence (whole entry, looked up): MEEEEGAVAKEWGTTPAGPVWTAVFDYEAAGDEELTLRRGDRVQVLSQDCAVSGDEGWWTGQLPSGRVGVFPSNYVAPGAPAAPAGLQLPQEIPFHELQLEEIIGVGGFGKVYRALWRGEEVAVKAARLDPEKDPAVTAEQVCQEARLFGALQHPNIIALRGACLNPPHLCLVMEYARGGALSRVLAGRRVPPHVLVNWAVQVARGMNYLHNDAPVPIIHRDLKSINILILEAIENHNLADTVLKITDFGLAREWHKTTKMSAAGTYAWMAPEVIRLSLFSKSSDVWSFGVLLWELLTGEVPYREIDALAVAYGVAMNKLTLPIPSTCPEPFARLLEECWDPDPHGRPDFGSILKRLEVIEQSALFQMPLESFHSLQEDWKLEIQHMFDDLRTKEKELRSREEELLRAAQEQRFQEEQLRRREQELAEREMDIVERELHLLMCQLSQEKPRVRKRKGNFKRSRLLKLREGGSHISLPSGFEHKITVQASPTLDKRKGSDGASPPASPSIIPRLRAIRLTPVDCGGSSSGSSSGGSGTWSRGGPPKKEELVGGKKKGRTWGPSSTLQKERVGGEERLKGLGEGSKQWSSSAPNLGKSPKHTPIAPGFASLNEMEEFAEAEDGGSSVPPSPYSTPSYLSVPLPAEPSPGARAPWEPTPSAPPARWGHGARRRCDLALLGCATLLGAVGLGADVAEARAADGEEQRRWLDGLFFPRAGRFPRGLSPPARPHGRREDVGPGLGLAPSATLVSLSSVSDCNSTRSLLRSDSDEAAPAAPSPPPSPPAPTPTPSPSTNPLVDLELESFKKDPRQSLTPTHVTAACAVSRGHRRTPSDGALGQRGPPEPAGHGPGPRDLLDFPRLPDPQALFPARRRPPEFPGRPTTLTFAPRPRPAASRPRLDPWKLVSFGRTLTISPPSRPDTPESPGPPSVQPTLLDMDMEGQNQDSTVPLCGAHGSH

# Set 1
# Target: GABAA receptor benzodiazepine site
# Notes: off-target scan
SMILES,Ki [nM]
CN(C)[C@@H]1CCN(c2cc(-c3ccccc3)nc3ccnn23)C1,1940
O=c1nc(-c2ccccn2)sc2ccccc12,934
Cc1cc2c(-c3ccco3)cnc(N[C@H]3CCN(C)C[C@@H]3C(=O)NC3CCCCC3)c2[nH]c1=O,2540
Cc1nc(N2CC[C@@H](O)C2)ncc1-c1cc(C(F)(F)F)cc2[nH]ncc12,4540
CC1CCN(c2ccnc(NCc3cn(C)cn3)n2)CC1,512
COCc1nc2cnc3cc(-c4c(C)noc4C)c(OC[C@H]4CCNC4)cc3c2n1[C@H](C)c1ccccc1,1970
CCNC(=O)c1cc2c(N3CCOC[C@H]3C)ccnc2n1C,224
CCNC(=O)c1cc2c(N3CCOC[C@@H]3C)ccnc2[nH]1,1530
Cc1ncc(-c2cc(Cl)ccc2F)cc1-n1c(=O)n(CC(N)=O)c2ccccc21,2750
CC(=O)c1c(NS(C)(=O)=O)c2cc(-c3ccc(Cl)cc3)c(-c3ccc(Cl)cc3Cl)nc2n(C)c1=O,1660

# Set 2
# Target: DNA polymerase theta, ATPase domain (POLQ, Homo sapiens, UniProt O75417)
# UniProt O75417, sequence (whole entry, unmodified, looked up): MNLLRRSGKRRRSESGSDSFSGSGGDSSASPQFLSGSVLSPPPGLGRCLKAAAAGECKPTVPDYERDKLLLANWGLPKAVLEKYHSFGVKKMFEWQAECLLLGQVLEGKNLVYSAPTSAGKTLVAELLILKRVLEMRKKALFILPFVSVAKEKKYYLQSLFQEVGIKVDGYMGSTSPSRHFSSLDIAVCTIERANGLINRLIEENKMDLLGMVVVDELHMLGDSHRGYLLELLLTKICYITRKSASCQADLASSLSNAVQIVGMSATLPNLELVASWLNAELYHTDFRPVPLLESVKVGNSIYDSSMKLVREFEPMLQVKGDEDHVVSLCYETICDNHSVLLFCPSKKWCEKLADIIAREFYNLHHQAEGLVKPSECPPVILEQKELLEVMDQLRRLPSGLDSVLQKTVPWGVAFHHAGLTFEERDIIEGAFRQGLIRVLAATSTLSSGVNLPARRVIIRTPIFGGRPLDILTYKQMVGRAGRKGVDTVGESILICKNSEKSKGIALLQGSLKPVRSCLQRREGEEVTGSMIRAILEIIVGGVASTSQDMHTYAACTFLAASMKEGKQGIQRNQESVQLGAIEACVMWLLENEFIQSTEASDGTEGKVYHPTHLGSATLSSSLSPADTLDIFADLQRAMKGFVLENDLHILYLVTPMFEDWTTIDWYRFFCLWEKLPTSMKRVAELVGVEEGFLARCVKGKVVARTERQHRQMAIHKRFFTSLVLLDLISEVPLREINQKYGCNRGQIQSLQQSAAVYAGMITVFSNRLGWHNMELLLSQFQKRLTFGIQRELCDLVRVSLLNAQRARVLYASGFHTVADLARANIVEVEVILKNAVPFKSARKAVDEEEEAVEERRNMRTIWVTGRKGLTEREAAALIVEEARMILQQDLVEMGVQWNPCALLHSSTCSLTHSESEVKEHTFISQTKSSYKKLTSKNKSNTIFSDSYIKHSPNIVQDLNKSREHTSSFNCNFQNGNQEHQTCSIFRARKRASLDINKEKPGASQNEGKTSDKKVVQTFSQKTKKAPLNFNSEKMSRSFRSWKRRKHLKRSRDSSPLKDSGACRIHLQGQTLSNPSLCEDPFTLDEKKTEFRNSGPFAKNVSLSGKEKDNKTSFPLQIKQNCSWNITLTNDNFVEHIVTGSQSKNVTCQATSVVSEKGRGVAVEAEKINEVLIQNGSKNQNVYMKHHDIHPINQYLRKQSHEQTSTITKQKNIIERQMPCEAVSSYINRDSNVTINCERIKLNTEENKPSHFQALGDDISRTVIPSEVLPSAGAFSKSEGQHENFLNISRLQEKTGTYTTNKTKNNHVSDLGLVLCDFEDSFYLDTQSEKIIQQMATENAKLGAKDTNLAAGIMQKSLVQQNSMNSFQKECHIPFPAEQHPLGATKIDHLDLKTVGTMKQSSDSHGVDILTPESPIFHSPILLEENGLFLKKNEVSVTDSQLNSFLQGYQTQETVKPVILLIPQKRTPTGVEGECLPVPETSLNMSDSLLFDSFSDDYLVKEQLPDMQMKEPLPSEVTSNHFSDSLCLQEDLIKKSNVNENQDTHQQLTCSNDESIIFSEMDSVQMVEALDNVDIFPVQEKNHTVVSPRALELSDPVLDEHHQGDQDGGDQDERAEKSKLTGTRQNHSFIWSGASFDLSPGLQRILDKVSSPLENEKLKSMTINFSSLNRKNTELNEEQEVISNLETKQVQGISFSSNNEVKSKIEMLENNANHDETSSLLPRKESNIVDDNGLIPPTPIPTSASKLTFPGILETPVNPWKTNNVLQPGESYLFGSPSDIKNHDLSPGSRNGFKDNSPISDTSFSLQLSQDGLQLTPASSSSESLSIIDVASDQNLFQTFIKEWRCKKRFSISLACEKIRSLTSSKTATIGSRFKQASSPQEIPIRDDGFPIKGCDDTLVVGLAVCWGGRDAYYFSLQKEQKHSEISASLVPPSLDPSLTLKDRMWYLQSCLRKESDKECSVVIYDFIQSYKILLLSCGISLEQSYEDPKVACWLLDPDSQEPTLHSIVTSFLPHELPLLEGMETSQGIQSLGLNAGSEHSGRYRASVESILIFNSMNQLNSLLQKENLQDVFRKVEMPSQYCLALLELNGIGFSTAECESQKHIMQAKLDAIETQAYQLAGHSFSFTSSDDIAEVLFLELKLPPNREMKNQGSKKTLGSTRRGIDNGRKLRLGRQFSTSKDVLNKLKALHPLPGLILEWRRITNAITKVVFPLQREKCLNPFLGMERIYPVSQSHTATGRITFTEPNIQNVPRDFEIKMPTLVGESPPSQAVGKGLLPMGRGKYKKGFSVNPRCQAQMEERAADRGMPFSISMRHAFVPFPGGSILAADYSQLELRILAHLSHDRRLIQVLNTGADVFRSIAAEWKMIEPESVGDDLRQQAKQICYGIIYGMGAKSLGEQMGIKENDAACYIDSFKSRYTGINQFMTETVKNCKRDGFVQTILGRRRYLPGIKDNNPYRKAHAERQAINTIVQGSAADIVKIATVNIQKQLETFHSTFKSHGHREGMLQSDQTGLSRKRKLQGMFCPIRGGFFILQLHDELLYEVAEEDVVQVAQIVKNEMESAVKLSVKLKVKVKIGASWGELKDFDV
# Read-out: enzyme activity
# Mode: inhibitor
# Tested at: 77 µM
# Relative to: untreated
SMILES,remaining activity
Nc1cc(-c2ccncc2)c[nH]c1=O,97.5%
Cn1c(=O)cc(N2CCC[C@@H](N)C2)n(Cc2ccccc2C#N)c1=O,99.2%
N#Cc1c(NC(=O)c2cccc3ccccc23)sc2c1CCCC2,100% and 110%
CN(C(=O)C(Cl)Cl)c1ccc(OC(=O)c2ccco2)cc1,100%
C[C@@H]1C[C@H]2[C@@H]3CCC4=CC(=O)C=C[C@]4(C)[C@@]3(F)[C@@H](O)C[C@]2(C)[C@@]1(O)C(=O)CO,101%
O=[N+]([O-])c1ccc2c(c1)S(=O)(=O)C=C2,109% and 102%
NC(CO)(CO)CO,96.2%
Nc1ccc(S(=O)(=O)Nc2ccccn2)cc1,98.8%
CC(C(=O)O)c1ccc2c(c1)CC(=O)c1ccccc1S2 (stereo not drawn),91.3%
NC(=O)c1cccnc1,95.4%
N[C@H](C(=O)O)c1cc(O)cc(O)c1,107%
NC1=N[C@@]2(c3cc(NC(=O)c4ccc(F)cn4)ccc3F)COC[C@H]2CS1,95.6%
CCOc1nc2cccc(C(=O)O)c2n1Cc1ccc(-c2ccccc2-c2nnn[nH]2)cc1,86.3%
Cc1c(C)c2c(c(C)c1O)CC[C@@](C)(CCC[C@H](C)CCC[C@H](C)CCCC(C)C)O2,101%
Cc1cccc(CC(=O)N2CCc3c2ccc(-c2cn(C)c4ncnc(N)c24)c3F)n1,86.3%
O=C(CCCCC(=O)Nc1c(I)cc(I)c(C(=O)O)c1I)Nc1c(I)cc(I)c(C(=O)O)c1I,99.1%
COc1cc(Nc2ncc3c(n2)-c2ccc(Cl)cc2C(c2c(F)cccc2OC)=NC3)ccc1C(=O)O,97.3%
COc1ccccc1CN[C@@H]1CCCN[C@@H]1c1ccccc1,108%
CC[C@H]1CN2CCc3cc(OC)c(OC)cc3[C@@H]2C[C@@H]1C[C@H]1NCCc2cc(OC)c(OC)cc21,100% and 103%

# Set 3
# Target: Mitogen-activated protein kinase kinase kinase 11 (MAP3K11, Homo sapiens, UniProt Q16584)
# UniProt Q16584, sequence (whole entry, looked up): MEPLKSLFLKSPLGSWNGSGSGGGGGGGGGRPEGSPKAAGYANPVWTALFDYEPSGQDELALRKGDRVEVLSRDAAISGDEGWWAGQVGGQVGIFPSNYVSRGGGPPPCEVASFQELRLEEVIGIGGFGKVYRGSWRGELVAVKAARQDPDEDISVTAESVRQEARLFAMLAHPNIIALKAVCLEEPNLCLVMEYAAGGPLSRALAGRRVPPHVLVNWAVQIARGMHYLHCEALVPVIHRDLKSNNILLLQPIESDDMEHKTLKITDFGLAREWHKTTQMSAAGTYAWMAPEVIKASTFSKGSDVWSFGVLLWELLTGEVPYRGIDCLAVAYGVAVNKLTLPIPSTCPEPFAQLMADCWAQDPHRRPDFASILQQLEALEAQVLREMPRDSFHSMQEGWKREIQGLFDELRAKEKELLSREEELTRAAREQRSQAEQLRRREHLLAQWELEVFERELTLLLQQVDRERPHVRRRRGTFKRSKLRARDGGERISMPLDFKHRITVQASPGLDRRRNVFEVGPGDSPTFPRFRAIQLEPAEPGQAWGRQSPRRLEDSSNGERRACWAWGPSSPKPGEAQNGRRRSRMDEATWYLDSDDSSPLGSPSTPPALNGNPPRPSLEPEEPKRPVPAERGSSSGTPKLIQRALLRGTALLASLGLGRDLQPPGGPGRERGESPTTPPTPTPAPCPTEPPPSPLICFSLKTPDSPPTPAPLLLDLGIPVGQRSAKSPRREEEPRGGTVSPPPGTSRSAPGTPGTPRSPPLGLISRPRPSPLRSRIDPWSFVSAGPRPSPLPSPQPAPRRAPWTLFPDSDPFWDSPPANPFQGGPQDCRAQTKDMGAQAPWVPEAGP
# Read-out: enzyme activity
# Mode: inhibitor
# Tested at: 0.5 µM
# Relative to: control
SMILES,remaining activity [%]
CCCCc1c(-c2ccc(OC)cc2)[nH]c2nccnc12,39.4
COc1cccc(-c2cc(=O)c3ccccc3o2)c1N,95.9
O=C1NC(=O)c2c1c1c3ccccc3[nH]c1n1cncc21,57.5
O=c1cc(N2CCOCC2)oc2c(-c3ccccc3)cccc12,101
Cc1cc(Nc2cc(N3CCN(C)CC3)nc(Sc3ccc(NC(=O)C4CC4)cc3)n2)[nH]n1,52.7
O=Nc1c(-c2c(O)[nH]c3cc(Br)ccc23)[nH]c2ccccc12,16
CN(C)S(=O)(=O)c1ccc2c(c1)/C(=C/c1cc3c([nH]1)CCCC3)C(=O)N2,57.4
COc1ccc2c(c1)c(C1=C(c3c[nH]c4ccccc34)C(=O)NC1=O)cn2CCCN(C)C,75.6
c1ccc(-c2n[nH]c3c2oc2ccccc23)cc1,91.8
c1ccc2c(-c3ccncc3)c[nH]c2c1,95.2
N#Cc1cnc2cnc(NCc3cccnc3)cc2c1Nc1ccc(F)c(Cl)c1,89
O=C1NC(=O)c2c1c1c3ccccc3[nH]c1c1[nH]c3cc(Br)ccc3c21,14
O=C(c1cc2cc(O)ccc2[nH]1)c1cc2cc(O)ccc2[nH]1,24.5
O=C1Nc2ccccc2/C1=C\c1c(Cl)[nH]c2ccccc12,100
Oc1cccc(-c2nc(N3CCOCC3)c3oc4ncccc4c3n2)c1,96.5
CCCNC(=O)Nc1ccc(Oc2ncnc3cc(OC)c(OC)cc23)cc1Cl,89.2
O=C1Nc2ccc(Br)cc2/C1=C/c1cc2c([nH]1)CCCC2,16.8
O=C1Cc2c([nH]c3ccc(Br)cc23)-c2ccccc2N1,49.4
Cc1ccc(S(=O)(=O)/C=C/C#N)cc1,98.2

# Set 4
# Structure (SMILES): Cc1sc(C(=O)NC2COC2)cc1-n1cc(NC(=O)Nc2c(F)cccc2Cl)cn1
# Read-out: enzyme activity
# Tested at: 10 µM
target,test,scale,remaining activity [%]
"PAS domain-containing serine/threonine-protein kinase (PASK, Homo sapiens, UniProt Q96RG2)",,relative to: untreated control,92.9
"Serine/threonine-protein kinase PLK3 (PLK3, Homo sapiens, UniProt Q9H4B4)",,relative to: untreated control,100
"MAP/microtubule affinity-regulating kinase 3 (MARK3, Homo sapiens, UniProt P27448)",,relative to: untreated control,100
"Mitogen-activated protein kinase kinase kinase 19 (MAP3K19, Homo sapiens, UniProt Q56UN5)",inhibitor,,95.5
"Ephrin type-A receptor 8 (EPHA8, Homo sapiens, UniProt P29322)",,relative to: untreated control,90.4
"Tyrosine-protein kinase FRK (FRK, Homo sapiens, UniProt P42685)",,relative to: untreated control,86.3
"Mitogen-activated protein kinase kinase kinase 10 (MAP3K10, Homo sapiens, UniProt Q02779)",,relative to: untreated control,88.5
"Tyrosine-protein kinase JAK1 (JAK1, Homo sapiens, UniProt P23458)",,relative to: untreated control,71.5
"G protein-coupled receptor kinase 6 (GRK6, Homo sapiens, UniProt P43250)",,relative to: untreated control,89.7
"Mitogen-activated protein kinase kinase kinase 7 (MAP3K7, Homo sapiens, UniProt O43318)",,relative to: untreated control,97.7
"Tyrosine-protein kinase Lck (LCK, Homo sapiens, UniProt P06239)",,relative to: untreated control,44.3
"Casein kinase II subunit alpha (CSNK2A1, Homo sapiens, UniProt P68400)",,relative to: untreated control,96.3
"Ribosomal protein S6 kinase alpha-5 (RPS6KA5, Homo sapiens, UniProt O75582)",,relative to: untreated control,104
"Protein kinase C iota type (PRKCI, Homo sapiens, UniProt P41743)",,relative to: untreated control,90.5
"Serine/threonine-protein kinase LATS2 (LATS2, Homo sapiens, UniProt Q9NRM7)",,relative to: untreated control,94.4
